Assay results of several laboratories.
Protocols differ between the studies behind these lines. ± marks the error that the study gave. No end group written: not given here.
Integrin beta-2: Integrin beta-2 (Homo sapiens, UniProt P05107)
H2-Ab1/H2-Aa: H2-Ab1/H2-Aa (Mus musculus, UniProt P01921+P04228)
UniProt P01921, sequence (whole entry, looked up): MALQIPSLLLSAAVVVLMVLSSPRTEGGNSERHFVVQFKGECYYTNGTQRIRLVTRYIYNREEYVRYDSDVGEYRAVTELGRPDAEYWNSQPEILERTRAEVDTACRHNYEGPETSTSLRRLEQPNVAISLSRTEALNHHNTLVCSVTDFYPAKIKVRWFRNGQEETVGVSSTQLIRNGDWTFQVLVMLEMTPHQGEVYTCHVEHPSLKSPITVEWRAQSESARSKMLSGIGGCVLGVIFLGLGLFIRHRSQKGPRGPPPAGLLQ
UniProt P04228, sequence (whole entry, looked up): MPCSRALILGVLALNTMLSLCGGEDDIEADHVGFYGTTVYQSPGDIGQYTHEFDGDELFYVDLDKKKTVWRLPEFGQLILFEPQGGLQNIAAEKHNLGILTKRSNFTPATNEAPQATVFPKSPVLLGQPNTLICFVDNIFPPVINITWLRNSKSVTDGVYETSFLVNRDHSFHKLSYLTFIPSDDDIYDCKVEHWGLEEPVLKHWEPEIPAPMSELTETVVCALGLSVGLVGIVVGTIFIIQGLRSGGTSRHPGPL
B1: chain DFVLDNEGNPLENGGTYYILSDITAFGGIRAAPTGNERCPLTVVQSRNELDKGIGTIISSPYRIRFIAEGHPLSLKFDSFAVIMLCVGIPTEWSVVEDLPEGPAVKIGENKDAMDGWFRLERVSDDEFNNYKLVFCPQQAEDDKCGDIGISIDHDDGTRRLVVSKNKPLVVQFQKLDKESL
UniProt O60656, sequence (whole entry, looked up): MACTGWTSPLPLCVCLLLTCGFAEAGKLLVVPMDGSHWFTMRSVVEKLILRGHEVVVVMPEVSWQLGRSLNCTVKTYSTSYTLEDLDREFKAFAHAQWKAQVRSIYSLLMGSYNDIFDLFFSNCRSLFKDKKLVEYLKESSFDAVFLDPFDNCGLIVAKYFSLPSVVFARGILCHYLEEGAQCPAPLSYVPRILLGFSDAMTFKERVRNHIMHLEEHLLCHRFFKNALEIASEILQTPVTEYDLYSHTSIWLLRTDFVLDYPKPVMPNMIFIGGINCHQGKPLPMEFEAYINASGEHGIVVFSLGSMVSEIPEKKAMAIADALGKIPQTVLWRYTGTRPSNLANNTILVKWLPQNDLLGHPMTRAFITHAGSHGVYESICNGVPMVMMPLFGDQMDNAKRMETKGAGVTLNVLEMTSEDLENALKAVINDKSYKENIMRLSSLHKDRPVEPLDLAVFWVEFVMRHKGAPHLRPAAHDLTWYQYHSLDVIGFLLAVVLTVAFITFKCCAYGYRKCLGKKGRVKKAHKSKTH
UniProt P0C7A3, sequence (whole entry, looked up): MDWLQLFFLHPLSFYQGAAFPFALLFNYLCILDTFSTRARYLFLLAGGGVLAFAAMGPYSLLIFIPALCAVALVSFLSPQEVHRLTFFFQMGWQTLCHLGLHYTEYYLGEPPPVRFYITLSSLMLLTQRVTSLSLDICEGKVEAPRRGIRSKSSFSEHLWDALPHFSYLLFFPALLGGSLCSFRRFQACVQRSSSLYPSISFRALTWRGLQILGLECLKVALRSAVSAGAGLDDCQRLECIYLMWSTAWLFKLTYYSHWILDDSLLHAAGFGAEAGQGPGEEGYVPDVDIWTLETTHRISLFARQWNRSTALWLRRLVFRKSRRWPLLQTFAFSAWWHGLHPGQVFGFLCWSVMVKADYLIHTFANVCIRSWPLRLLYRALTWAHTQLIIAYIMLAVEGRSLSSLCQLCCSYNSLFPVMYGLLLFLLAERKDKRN
UniProt Q9NYY3, sequence (whole entry, looked up): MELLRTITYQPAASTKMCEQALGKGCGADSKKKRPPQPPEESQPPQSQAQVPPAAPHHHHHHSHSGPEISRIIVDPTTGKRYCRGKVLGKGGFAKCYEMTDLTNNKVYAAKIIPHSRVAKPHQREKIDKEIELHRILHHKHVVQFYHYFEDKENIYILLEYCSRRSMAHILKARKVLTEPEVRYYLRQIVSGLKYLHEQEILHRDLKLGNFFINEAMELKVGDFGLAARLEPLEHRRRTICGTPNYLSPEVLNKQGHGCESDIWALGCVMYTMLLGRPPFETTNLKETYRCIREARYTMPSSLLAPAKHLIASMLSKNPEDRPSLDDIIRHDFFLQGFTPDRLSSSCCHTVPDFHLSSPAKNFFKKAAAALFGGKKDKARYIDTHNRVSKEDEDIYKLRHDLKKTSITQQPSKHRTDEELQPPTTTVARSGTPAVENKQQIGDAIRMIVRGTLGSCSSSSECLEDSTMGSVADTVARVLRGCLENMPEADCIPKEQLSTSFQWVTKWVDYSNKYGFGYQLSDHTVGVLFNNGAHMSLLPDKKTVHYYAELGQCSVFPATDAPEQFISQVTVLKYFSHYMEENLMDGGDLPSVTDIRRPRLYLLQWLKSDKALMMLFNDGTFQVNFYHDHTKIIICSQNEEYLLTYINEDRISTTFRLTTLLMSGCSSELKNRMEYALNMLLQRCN

| Molecule | tested on | assay | test system | conditions | endpoint | result |
| --- | --- | --- | --- | --- | --- | --- |
| TKAARKS (acetyl-Lys27) | Protein AF-9, YEATS domain (Homo sapiens, UniProt P42568) | binding, isothermal titration calorimetry | – | with: acetylated histone peptides | Kd | 7000 nM |
| GLHST (FITC-labelled, PEGylated) | Serine/threonine-protein kinase PLK2, polo-box domain (PLK2, Homo sapiens, UniProt Q9NYY3) | binding, fluorescence polarization | – | polo-box domain, with: FITC-labelled peptide | Kd | > 2560 nM |
| angiostatin | Integrin beta-2 | binding, solid-phase binding | – | 22 °C | Kd | > 100000 nM |
| B1 | F11 (Homo sapiens, UniProt P03951) | enzyme activity, inhibitor | – | – | Ki | 620 nM |
| HNVNGVTAACTHE (HA(126-138) T128V/S136T) | H2-Ab1/H2-Aa | class II-peptide complex dissociation, SEC-HPLC fluorescence | peptide, soluble I-A FITC-peptide complex | pH 5.3, 37 °C, with: unlabeled Eα 5 µM | half-life | 9 h |
| plasminogen | Integrin beta-2 | binding, solid-phase binding | – | 22 °C | Kd | 500 nM |
| HNQNGVTAACSHE (HA(126-138) T128Q) | H2-Ab1/H2-Aa | class II-peptide complex dissociation, SEC-HPLC fluorescence | peptide, soluble I-A FITC-peptide complex | pH 5.3, 37 °C, with: unlabeled Eα 5 µM | half-life | 63 h |
| UGT1A9 (Homo sapiens, UniProt O60656) | O=c1oc2cc(O)ccc2c(-c2ccccc2)c1-c1ccccc1 | steady-state kinetics | – | pH 7.4, 37 °C | Vmax/Km | 41 µL/min/mg |
| HNGNGVTAACSHE (HA(126-138) T128G) | H2-Ab1/H2-Aa | class II-peptide complex dissociation, SEC-HPLC fluorescence | peptide, soluble I-A FITC-peptide complex | pH 5.3, 37 °C, with: unlabeled Eα 5 µM | half-life | 1 h |
| GSSFLSPEHQRVQQRKESKKPPAKLQPK-{Gly(Biotin)} (not fully specified; biotin-labelled) | Membrane-bound ghrelin O-acyltransferase MBOAT4 (Mus musculus, UniProt P0C7A3) | substrate | peptide | pH 7 | Km | 3.5 ± 0.6 µM |

Excerpt of the above:
| Molecule | tested on | assay | test system | conditions | endpoint | result |
| --- | --- | --- | --- | --- | --- | --- |
| plasminogen | Integrin beta-2 | binding, solid-phase binding | – | 22 °C | Kd | 500 nM |
